Published values of several laboratories.
Every numbered part comes from another study and shows a few of its results, in no order.

Set 1
Target: Interferon regulatory factor 3, full length, phosphomimetic (IRF3, Homo sapiens, UniProt Q14653, residues 1-427, S386D/S396D/S398D/S402D/T404D/S405D)
Sequence of UniProt Q14653 (whole entry, unmodified, looked up): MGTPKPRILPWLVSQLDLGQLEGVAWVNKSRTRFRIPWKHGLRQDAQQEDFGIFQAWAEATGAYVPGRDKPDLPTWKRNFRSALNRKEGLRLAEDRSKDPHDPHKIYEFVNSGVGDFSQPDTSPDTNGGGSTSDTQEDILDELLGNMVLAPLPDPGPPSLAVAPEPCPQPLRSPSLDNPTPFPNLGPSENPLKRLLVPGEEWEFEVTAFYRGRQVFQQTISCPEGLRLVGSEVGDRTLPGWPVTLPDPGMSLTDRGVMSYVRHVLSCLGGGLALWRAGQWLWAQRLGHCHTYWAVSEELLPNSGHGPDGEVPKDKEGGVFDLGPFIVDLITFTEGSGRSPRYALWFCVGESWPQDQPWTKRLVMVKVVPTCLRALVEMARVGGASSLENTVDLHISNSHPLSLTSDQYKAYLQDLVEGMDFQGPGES
Technique: protein-binding microarray
Molecule type: double-stranded DNA, one strand shown
Sample: in vitro
Concentration: 2540 nM top
Setting: 60-bp whole probe
With: salmon DNA 0.4 mg/ml
Relative to: random background probes
Reading: higher = stronger binding
All sequences stand within: GCCTAGCAC … GTCTTGATTCGCTTGACGCTGCTG
Oligonucleotide | fitted relative affinity [z-score]
CACTCTCAGAATCTCTCATGGTGCTAG | 2.36
TTCGGACTGCTTTTCCTTTAGTGCTAG | 0.83
GACGATATCACACTGGAGACGTGCTAG | 0.443
TTAGGTTTCCTTCTCTTTTAGTGCTAG | 9.78
TTAGGACTGGGGCCTGGGTTAGTGCTA | -1.32
TTAGGTCTCCGTATCCTTTAGTGCTAG | 2.45
GACAATCTCAGTCTCGAGACGTGCTAG | 0.611
TTAGGACGGGGTCTCGGTTAGTGCTAG | -0.704
TCATCTCTCCCATTCTGACTGTGCTAG | 2
TTAGGTTTCGGGATTGGGTTAGTGCTA | 4.41
GACGGACTGCTACTGCTGTCGTGCTAG | -0.559
TTAGGTTTCGGTCTCCGTTAGTGCTAG | 8.57
TAGTTGCAAGCCATGGGTGGGTGCTAG | -0.513
TTAGATATCAGTTTCTATTAGTGCTAG | 3.41
TTAGATCTCTGTATCGATTAGTGCTAG | 0.63
TTAGGACAGGACACTGGGTTAGTGCTA | -0.492
TTAGGTTTCGGTTTTCGGTTAGTGCTA | 9.74
TTCGGTTTCCTACTGCTTTAGTGCTAG | 6.41
GACGGACTGGGGTATCGAGACGTGCTA | -0.798
TTATGTATCGACTTTCGGTTAGTGCTA | 2.21
ACCTGTTCCCTCATCAGGCTGTGCTAG | 1.5
TTAGGGCTCCTACTGCTTTAGTGCTAG | -0.31
TTATATTTCAGTCTCGATTAGTGCTAG | 1.88
TTGGGTTTCGGTTCCGGTTAGTGCTAG | 9.34

Set 2
Target: Fragile X messenger ribonucleoprotein 1, C-terminal low-complexity region (Fmr1, Mus musculus, UniProt P35922)
Technique: RNA Bind-n-Seq
Molecule type: RNA
Sample: in vitro
Concentration: 200 nM
Setting: whole 134-nt RNA, ends assumed
With: 150 mM KCl
Relative to: input library
Reading: higher = stronger binding
All sequences stand within: GGGAGUUCUACAGUCCGACGAUC … UGGAAUUCUCGGGUGUCAAGG
Oligonucleotide | log2 enrichment
CCUGUGCUACACAUCGUAUGUACCGAAUCGGGGCCCCCCGGCCCCCCGGGGCCCCCCGGGGAAAGUAUUAUGUUACGCCGUUCGGAUCUG | -0.544
CAAGUCCUGUGCUACACAUCGUAUGUACCGAAUCGGAAAGGAAAAAAAGGAAAGGAAAGUAUUAUGUUACGCCGUUCGGAUCUGCACUUC | -0.819
AAGUCCUGUGCUACACAUCGUAUGUACCGAAUCGGGAAAGGGAAAGGGUUUUUGGGAAAGUAUUAUGUUACGCCGUUCGGAUCUGCACUU | 0.3
CAAGUCCUGUGCUACACAUCGUAUGUACCGAAUCGGGUGGGAAAGGGAAAAAGGGAAAGUAUUAUGUUACGCCGUUCGGAUCUGCACUUC | 0.673
CCUCAAGUCCUGUGCUACACAUCGUAUGUACCGAAUCGGAAAGGUGGUUUGGAAAGUAUUAUGUUACGCCGUUCGGAUCUGCACUUCCAG | -0.355
UGGCCCUGGUGGCAUGCGGGGAGGAAGAGGUGGCCUCAUGGAUCGUGGUGGUCCCGGUGGAAUGUUCAGAGGUGGACGUGGUGGAGACAG | 0.179
UCAAGUCCUGUGCUACACAUCGUAUGUACCGAAUCGGAAAGGAAAGGGAAAGGGAAAGUAUUAUGUUACGCCGUUCGGAUCUGCACUUCC | -0.379
GCAGGAAGUAAAAACAAAUGGAAAUGCUUCGGAUAGUGGCUGGGGUGGGGGUUGCUAAGGAAAGGGUGGGAUGGGAGUGGGUAAAGAGUU | 0.293
UAACUUUAGAGGAGGAUCUGAUGGAUAUGGCAGUCGACGUGGAUUUGGGGAUGGCUAUAAUGGGUAUGGAGGAGGACCUGGAGGUGGCAA | 0.138
UUGACCUAGAGGAUGAGACCAUUGAUGCCGAGGUCAUGAACUCUCUAGCAGUUACUAUGGAUGACUUCCGGGUAAGGACCACACCCGUGC | -2.01
UAACUUUAGAGGAGGCUCUGAUGGAUAUGGCAGUGGACGUGGAUUUGGGGAUGGCUAUAAUGGGUAUGGAGGAGGACCUGGAGGUGGCAA | 0.374
CACAGACAACACGCACCCACACAGACACAGAGGGAAGGGGUUGGGAUGGGGACAGGGUGCACAGCAGGGCGCGGUAGGACCCCAGCCCCU | 1.01
GUCCUGUGCUACACAUCGUAUGUACCGAAUCGGGAAAAAGGGUUUUUGGGUUUUUGGGAAAGUAUUAUGUUACGCCGUUCGGAUCUGCAC | -0.263
CACAGACAACACGCACCCACACAGACACAGAGGGAAGGGGUAAAGAUGGGGACAGGGUGCACAGCAGGGCGGGGUAGGACCCCAGCCCCU | 0.605

Set 3
Target: RNA binding protein fox-1 homolog 2, RRM domain, GST-SBP tag (RBFOX2, Homo sapiens, UniProt O43251-10, residues 100-194)
Technique: RNA Bind-n-Seq
Molecule type: RNA
Sample: in vitro
Concentration: 365 nM
Setting: natural RNA segment, single round, ends assumed
Relative to: no-protein control
Reading: higher = stronger binding
All sequences stand within: GGGAGUUCUACAGUCCGACGAUC … UGGAAUUCUCGGGUGCCAA
Target sequence (chain): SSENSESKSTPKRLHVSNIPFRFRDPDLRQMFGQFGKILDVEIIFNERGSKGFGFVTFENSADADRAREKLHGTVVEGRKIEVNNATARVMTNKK
Oligonucleotide | RBNS enrichment (R)
CGUGGGGAGGAUAGAUGUGCUCUGGAACUUUCUGAAGGACCAGCAGCUUCAGGGACUCUUAGUCUGUCCUUCCCCACUUUUGGUCCCAACAUCCCUGGGAUGGUGUGCUG | 0.373
CUGUAGUGGGGUUCUAGGCAUCUCUGUACUUUGCUUGCUCAUAUGCAUGUAGUCACUUUAUAAGUCAUUGUAUGUUAUUAUAUUCCGUAGGUAGAUGUGUAACCUCUUCA | 2.47
CAUUACUGUGUAUGUUAGGGUAUUAAAACUGUUUCACCAGUACAGUGAAAGUUGUUUCAACAUUUUAAACAAACAGUGGUUAUAGACUCUUUCUUUAACCAUUGUAUAUU | 0.385
AUGUCAGCAUUUGGUGUUACUCCUGUCCAAAUUCUGUUUGCAGACUUGUUUCAUGAUGAUGCUCUGGAAUGCUUGGGGACUUUGGGUGGAGGAGGAUGUUACUUCAUUUU | 4.57
UGAAACGGAAUCUCCACCCCAGACGUAUGAGCAUACAGCAAGACCACAGUUUCCUGGGGAGGCCUGAGUACACACAGGCCUGUGUCAGGAGGAGGGUCAUGGCUCCAAAU | 0.2
ACCCCCGAACCCUCUGAUGCUCCCGGAGACUCCUCCGACUCCACACCUCUCGCGGCAGCUGUCAUUUCCAUGUGCACUGGGACGGGAAGUCAAACGAGGAAUUUAAAAAA | 0.267
GGAUUGUAACAGGAUUGAUGGCACUUAGGGACAUCUCAUCCAACCGGGACUUAAAUUUCACACUAGAAAUGAGCUCCAGUCUUAACUCAGUGAAUGGGAAACACAUGUUC | 0.356
GCUGUCAGUUUUGAAUUCCUCCAUCUGAACUGCACUGAAGAACUAGACUAAAGCACCGGGCGGUCCAGCUGUAGCUGUUCUUCAGUGAGGGUGAGGAUCAGUGUAUUAGA | 0.985
UUUUUAGGGAAAUUUUUACAAAAAUAAUGGUCUGAUGUAAAUACCAUUUUAAAGUACAGUGCACAUAACUCCCUAGGCUGUUCCAACCUGACUAUUUGUAAAUGCUUUAG | 3.65
UAUUUUAGGUGCUGGAGUAUGUUUGAAGAGUGUGCUGGGAAAAAGGAAGCAUUUCUUCAUUGAUUUAAAUCAGUAUGAAUAUUAUAUGCCUAAAUAAAAAAUUUGCACAG | 0.668
GAAGCAGGAGUUCUCAGAGGAACACGUCCUUCCAUCCAGGAGAAAGUGACUUUCUGUCUGCGGCUGCUCCACAUCCCGGGCCUGCUUUUCAAGGGUAUCUGUUCUGAUAC | 0.277
GCGUUAACCUGUUCCCUUCUCUAUCCUUCCCCGUGGUACUGAGCUCACGUGGACUCCCAGUGCGAAGGGGCCCAUGGGUUGGGCUGCAGGCCUGGCCGUGAGCGGGGGCU | 0.539

Set 4
Target: Sal-like protein 4, full length isoform B (SALL4, Homo sapiens, UniProt Q9UJQ4-2, residues 1-616)
Technique: universal PBM
Molecule type: double-stranded DNA, one strand shown
Sample: in vitro
Concentration: not given
Setting: 8-mer, flanks averaged, mean of replicates
Reading: higher = stronger binding
Oligonucleotide | E-score
AGACGGGC | -0.269
GCTAGCCA | -0.234
TGGTCACA | 0.0283
CATGTCAA | 0.109
TGAGTTAA | 0.162
GGCATTAC | 0.00939
CAGCGCGC | -0.333
CACAGGCG | -0.121
AGCCATCG | -0.165
CGTCGCAG | -0.219
CCACCGTA | -0.133
GCTTCACA | -0.00405
CATACGAG | 0.0385
CCCCTGCG | -0.309
GAAGGTGA | -0.0577
GCTAAATA | 0.257
CCTGAGAC | -0.231
ACTTACCA | 0.103
CTGGTCTC | -0.239
ACCTGAAT | 0.219

Set 5
Target: Histone acetyltransferase KAT6A, winged helix 2, GST fusion (KAT6A, Homo sapiens, UniProt Q92794, residues 85-181)
Technique: protein binding microarray
Molecule type: double-stranded DNA, one strand shown
Sample: in vitro
Concentration: not given
Setting: 8-mer, flanks averaged, mean of 2 arrays, mostly near background
Relative to: not given
Reading: higher = stronger binding
Construct (chain): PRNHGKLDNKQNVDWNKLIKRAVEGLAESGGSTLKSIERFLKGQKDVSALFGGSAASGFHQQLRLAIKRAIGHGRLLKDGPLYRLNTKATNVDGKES
Oligonucleotide | E-score
CATGGTTA | -0.0906
GTTCGTAA | -0.0331
AAAGCTTT | -0.269
AGGTGCCC | 0.0267
AGGAATCC | 0.0476
AGATCTAG | -0.069
TCAACGAA | 0.123
ATGCGAGA | -0.00479
CAGTCTCG | -0.175
CTTGACTC | -0.167
AACTCGGT | -0.0391
ATTTTGGA | 0.0382
TGGAACAA | 0.0438
ATGATCGA | -0.135
AATATGCT | -0.114
ACCTAGTC | -0.168
TTCGCAAA | 0.194
ACGGGAGA | 0.0192
CATTATCA | 0.0637
ACTTGCCC | -0.105
TCCGCCGA | 0.274
CATTCCTA | -0.141
ATGCCCCA | -0.0909
AGGACCGC | 0.0977
GATTTGCC | 0.113
